Experimental data pooled from the literature.
Each line is one published result; not all experiments were run side by side. “And” joins repeats or separate records; there may be more than shown. ± marks the error that the study gave.
B1: colicin E1 fragment 1–81; sequence looked up; chain METAVAYYKDGVPYDDKGQVIITLLNGTPDGSGSGGGGGKGGSKSESSAAIHATAKWSTAQLKKTQAEQAARAKAAAEAQA

| Molecule | target or system | test | test system | setting | quantity | value |
| --- | --- | --- | --- | --- | --- | --- |
| N=C(N)NCCC[C@@H]1NC(=O)[C@H](CCCCNC(=O)CNC(=O)CNC(=O)CNC(=O)CC[C@H](NC(=O)CCOCCOCCOCCOCCNC(=O)c2ccc(NN)nc2)C(=O)NCC(=O)NCC(=O)NCC(=O)NCCCC[C@@H]2NC(=O)[C@@H](Cc3ccccc3)NC(=O)[C@H](CC(=O)O)NC(=O)CNC(=O)[C@H](CCCNC(=N)N)NC2=O)NC(=O)[C@@H](Cc2ccccc2)NC(=O)[C@H](CC(=O)O)NC(=O)CNC1=O [technetium-99m labelled] | – | γ-counting | female athymic nude mice, U-87 MG xenograft, eyes | intravenous, 0.5 h | tissue uptake | 2.04 ± 0.15 %ID/g |
| CSCC[C@H](NC(=O)[C@H](CC(C)C)NC(=O)[C@H](Cc1c[nH]cn1)NC(=O)CNC(=O)[C@@H](NC(=O)[C@H](C)NC(=O)[C@H](Cc1c[nH]c2ccccc12)NC(=O)[C@H](CCC(N)=O)NC(=O)CCC(=O)NCCOCCOCCNC(=O)CN1CCN(CC(=O)O)CCN(CC(=O)O)CCN(CC(=O)O)CC1)C(C)C)C(N)=O | – | – | ICR SCID mouse (PC-3 tumour), urine and bladder contents | intravenous, 185 kBq, 1 h | excreted dose | 80.67 ± 0.74% |
| COc1cccc2c1C(=O)c1c(O)c3c(c(O)c1C2=O)C[C@@](O)(C(=O)CO)C[C@@H]3O[C@H]1C[C@H](NC(=O)[C@H](CC(C)C)NC(=O)[C@H](C)NC(=O)[C@H](CC(C)C)NC(=O)CCNC(=O)CCC(=O)O)[C@H](O)[C@H](C)O1 | – | – | mouse, E0771 tumour-bearing, liver | intravenous, 92 µmol/kg | AUC | 48 µM·h |
| B1 (colicin E1 fragment 1–81) | – | far-UV CD | peptide, 50 mM sodium phosphate | – | helical content | 14 ± 2% |
| CCN1C(=CC=CC=CC2=[N+](CCCCCC(=O)NCCCC[C@H](NC(=O)CN3CCN(CC(=O)O)CCN(CC(=O)O)CCN(CC(=O)O)CC3)C(=O)NCC(=O)NCC(=O)N[C@@H](Cc3ccc(O)cc3)C(=O)NCC(=O)N[C@H]3CSSC[C@@H]4NC(=O)CNC(=O)[C@H](C)NC(=O)[C@H](CC(C)C)NC(=O)[C@@H]5CSSC[C@@H](C(=O)NCC(N)=O)NC(=O)[C@H](Cc6ccccc6)NC(=O)CNC(=O)[C@H](CC(N)=O)NC(=O)[C@@H]6CCCN6C(=O)CNC(=O)[C@H](CSSC[C@H](NC(=O)[C@H](CO)NC(=O)[C@H]([C@@H](C)O)NC(=O)[C@@H]6CCCN6C(=O)[C@H](C)NC(=O)[C@H](Cc6c[nH]c7ccccc67)NC(=O)[C@H](CC(=O)O)NC(=O)CNC(=O)[C@H](CCCNC(=N)N)NC(=O)CNC(=O)[C@H](CCC(N)=O)NC(=O)[C@@H]6CCCN6C3=O)C(=O)N[C@@H](CO)C(=O)N[C@@H](CCC(N)=O)C(=O)N[C@@H](CC(=O)O)C(=O)N[C@@H](CO)C(=O)N[C@@H](CC(=O)O)C(=O)N5)NC(=O)[C@H](C(C)C)NC4=O)c3ccc4c(S(=O)(=O)[O-])cc(S(=O)(=O)O)cc4c3C2(C)C)C(C)(C)c2c1ccc1c(S(=O)(=O)O)cc(S(=O)(=O)O)cc21 (single isomer, unassigned) [copper-64 labelled] | – | microPET | female athymic nude mouse, U-87 MG xenograft, tumour | intravenous, 100 µCi, 24 h | tumour uptake | 5.02 ± 0.05 %ID/g |
| COc1cccc2c1C(=O)c1c(O)c3c(c(O)c1C2=O)C[C@@](O)(C(=O)CO)C[C@@H]3O[C@H]1C[C@H](NC(=O)[C@@H]2CCCN2C(=O)CNC(=O)[C@H](CC(C)C)NC(=O)[C@H](C)NC(=O)CP(=O)(O)O)[C@H](O)[C@H](C)O1 | – | – | mouse, E0771 tumour-bearing, tumor | intravenous, 92 µmol/kg | AUC | 16.9 µM·h |
| Cc1ccccc1NC(=O)Nc1ccc(CC(=O)N[C@@H](CCCCNC(=O)/C=C/c2cccnc2)C(=O)N[C@@H](CCCC(=O)O)C(=O)NC2(C(=O)NCCOCCOCCOCCOCC(=O)N[C@@H](CCCCNC(=S)Nc3ccc(C[C@H]4CN(CC(=O)O)CCN(CC(=O)O)CCN4CC(=O)O)cc3)C(N)=O)CCCCC2)cc1 [fluorine-18 labelled] | – | – | female C57BL/6 mice, B16-F10 tumour, kidney | intravenous, 2 h | tissue uptake | 5.9 ± 0.5 %ID/g |
| CN[C@@](C)(C[18F])C(=O)O | A549 tumour model | – | host not given, muscle | 1 h, tumour-bearing | tracer uptake | 1 %ID/g |
| N=C(N)NCCC[C@@H]1NC(=O)[C@H](CCCCNC(=O)[C@H](CC(=O)O)NC(=O)[C@H](CC(=O)O)NC(=O)[C@H](CC(=O)O)NC(=O)CC[C@H](NC(=O)CCOCCOCCOCCOCCNC(=O)c2ccc(NN)nc2)C(=O)N[C@@H](CC(=O)O)C(=O)N[C@@H](CC(=O)O)C(=O)N[C@@H](CC(=O)O)C(=O)NCCCC[C@@H]2NC(=O)[C@@H](Cc3ccccc3)NC(=O)[C@H](CC(=O)O)NC(=O)CNC(=O)[C@H](CCCNC(=N)N)NC2=O)NC(=O)[C@@H](Cc2ccccc2)NC(=O)[C@H](CC(=O)O)NC(=O)CNC1=O [technetium-99m labelled] | – | γ-counting | female athymic nude mice, U-87 MG xenograft, kidneys | intravenous, 0.5 h | tissue uptake | 24.7 ± 2.4 %ID/g |
| N=C(N)NCCC[C@@H]1NC(=O)[C@H](CCCCNC(=O)CCOCCOCCOCCOCCNC(=O)CC[C@H](NC(=O)c2ccc(NN)nc2)C(=O)NCCOCCOCCOCCOCCC(=O)NCCCC[C@@H]2NC(=O)[C@@H](Cc3ccccc3)NC(=O)[C@H](CC(=O)O)NC(=O)CNC(=O)[C@H](CCCNC(=N)N)NC2=O)NC(=O)[C@@H](Cc2ccccc2)NC(=O)[C@H](CC(=O)O)NC(=O)CNC1=O [technetium-99m labelled] | – | – | athymic nude mouse, U-87 MG xenograft | 60 min | tumour uptake | 8.3 ± 3.57 %ID/g |
| CC(=O)N(O)CCCCCNC(=O)CCC(=O)N(O)CCCCCNC(=O)CCC(=O)N(O)CCCCCNC(=S)Nc1ccc(NC(=S)NCCOCCOCCOCCOCCC(=O)N[C@@H](CCC(=O)NCCOCCOCCOCCOCCC(=O)NCCCC[C@@H]2NC(=O)[C@@H](Cc3ccccc3)NC(=O)[C@H](CC(=O)O)NC(=O)CNC(=O)[C@H](CCCNC(=N)N)NC2=O)C(=O)NCCOCCOCCOCCOCCC(=O)NCCCC[C@@H]2NC(=O)[C@@H](Cc3ccccc3)NC(=O)[C@H](CC(=O)O)NC(=O)CNC(=O)[C@H](CCCNC(=N)N)NC2=O)cc1 [zirconium-89 labelled] | – | – | athymic nude mice female tumour-bearing, blood | intravenous, 100 µCi, 4 h | tissue uptake | ~0.67 %ID/g |
| CC(C)C[C@@H]1NC(=O)[C@@H]2CSSC[C@@H](C(=O)NCC(N)=O)NC(=O)[C@H](Cc3ccccc3)NC(=O)CNC(=O)[C@H](CC(N)=O)NC(=O)[C@@H]3CCCN3C(=O)CNC(=O)[C@@H]3CSSC[C@H](NC(=O)[C@H]([C@@H](C)O)NC(=O)[C@H](CC(C)C)NC(=O)[C@@H]4CCCN4C(=O)[C@@H]4CCCN4C(=O)[C@H](CC(N)=O)NC(=O)[C@H](CC(=O)O)NC(=O)CNC(=O)[C@H](CCCNC(=N)N)NC(=O)[C@@H]4CCCN4C(=O)[C@H](CCCNC(=N)N)NC(=O)[C@@H]4CCCN4C(=O)[C@@H](NC(=O)CNC(=O)CN4CCN(CC(=O)O)CCN(CC(=O)O)CCN(CC(=O)O)CC4)CSSC[C@H](NC(=O)CNC(=O)[C@H](C)NC1=O)C(=O)N[C@@H](C(C)C)C(=O)N3)C(=O)N[C@@H](CO)C(=O)N[C@@H](CCC(N)=O)C(=O)N[C@@H](CC(=O)O)C(=O)N[C@@H](CO)C(=O)N[C@@H](CC(=O)O)C(=O)N2 [copper-64 labelled] | – | PET/CT | transgenic mouse lung tumour, lung tumour | intravenous, 60 min | tumour uptake | 1.66 %ID/g and 2.03 %ID/g and 1.39 %ID/g and 1.65 %ID/g and 2.12 %ID/g |
| melittin | – | CD titration | POPC 50% POPG 50% vesicles | pH 7.0, 60 °C | free energy of partitioning | -8.01 kcal/mol |
| CC(=O)N[C@@H](CCCNC(=N)N)C(=O)N[C@@H](CCCNC(=N)N)C(=O)N[C@@H](Cc1ccc2ccccc2c1)C(=O)N[C@H]1CSSC[C@@H](C(=O)N[C@@H](CCCNC(=N)N)C(N)=O)NC(=O)[C@H](CCCNC(N)=O)NC(=O)[C@H](CCCNC(=N)N)NC(=O)[C@H](Cc2ccc(O)cc2)NC(=O)[C@@H]2CCCN2C(=O)[C@@H](CCCCNC(=O)CCCNC(=O)[C@H](CCCCNC(=O)CCCCCN2C(=CC=CC=CC3=[N+](CCCCS(=O)(=O)O)c4ccc(S(=O)(=O)[O-])cc4C3(C)C)C(C)(C)c3cc(S(=O)(=O)O)ccc32)NC(=O)CN(CCN(CC(=O)O)CC(=O)O)CCN(CC(=O)O)CC(=O)O)NC(=O)[C@H](CCCNC(=N)N)NC(=O)[C@H](CCCNC(N)=O)NC(=O)[C@H](Cc2ccc(O)cc2)NC1=O (single isomer, unassigned) [indium-111 labelled] | – | 111In gamma counting | Balb/c nude mouse, tumour-bearing | intravenous, 50 µg, 24 h | tumour to muscle ratio | 5.95 ± 0.39 |
